Results gathered from unrelated publications.
Lines come from different studies, so protocols differ. “And” joins repeats or separate records; there may be more than shown. Numbers after ± are the reported error.
CHRM1: Muscarinic acetylcholine receptor M1 (CHRM1, Homo sapiens, UniProt P11229)
UniProt P11229, sequence (whole entry, looked up): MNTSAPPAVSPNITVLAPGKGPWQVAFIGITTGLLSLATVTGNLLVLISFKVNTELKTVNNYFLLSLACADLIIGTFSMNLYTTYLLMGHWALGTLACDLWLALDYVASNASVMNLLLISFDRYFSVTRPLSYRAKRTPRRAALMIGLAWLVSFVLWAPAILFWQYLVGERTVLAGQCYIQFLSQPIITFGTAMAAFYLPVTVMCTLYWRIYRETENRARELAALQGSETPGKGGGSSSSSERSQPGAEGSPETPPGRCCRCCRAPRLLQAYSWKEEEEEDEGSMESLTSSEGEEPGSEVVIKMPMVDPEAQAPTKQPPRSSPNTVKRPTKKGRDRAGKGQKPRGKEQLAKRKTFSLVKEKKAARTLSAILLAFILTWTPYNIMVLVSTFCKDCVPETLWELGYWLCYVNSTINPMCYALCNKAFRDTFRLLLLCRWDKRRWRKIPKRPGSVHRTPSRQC
UniProt P12369, sequence (whole entry, unmodified, looked up): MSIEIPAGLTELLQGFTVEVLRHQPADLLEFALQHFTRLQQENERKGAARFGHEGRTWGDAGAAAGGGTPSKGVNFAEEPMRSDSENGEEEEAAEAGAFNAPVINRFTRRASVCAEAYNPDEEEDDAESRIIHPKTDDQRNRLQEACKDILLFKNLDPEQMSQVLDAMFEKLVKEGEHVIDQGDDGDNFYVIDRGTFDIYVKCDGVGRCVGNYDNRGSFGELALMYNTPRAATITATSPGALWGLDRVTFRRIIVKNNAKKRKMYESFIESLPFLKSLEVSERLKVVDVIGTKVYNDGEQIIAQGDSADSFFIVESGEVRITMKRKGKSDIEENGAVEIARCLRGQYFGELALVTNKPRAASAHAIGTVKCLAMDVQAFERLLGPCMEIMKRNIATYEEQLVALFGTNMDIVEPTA
UniProt P08173, sequence (whole entry, looked up): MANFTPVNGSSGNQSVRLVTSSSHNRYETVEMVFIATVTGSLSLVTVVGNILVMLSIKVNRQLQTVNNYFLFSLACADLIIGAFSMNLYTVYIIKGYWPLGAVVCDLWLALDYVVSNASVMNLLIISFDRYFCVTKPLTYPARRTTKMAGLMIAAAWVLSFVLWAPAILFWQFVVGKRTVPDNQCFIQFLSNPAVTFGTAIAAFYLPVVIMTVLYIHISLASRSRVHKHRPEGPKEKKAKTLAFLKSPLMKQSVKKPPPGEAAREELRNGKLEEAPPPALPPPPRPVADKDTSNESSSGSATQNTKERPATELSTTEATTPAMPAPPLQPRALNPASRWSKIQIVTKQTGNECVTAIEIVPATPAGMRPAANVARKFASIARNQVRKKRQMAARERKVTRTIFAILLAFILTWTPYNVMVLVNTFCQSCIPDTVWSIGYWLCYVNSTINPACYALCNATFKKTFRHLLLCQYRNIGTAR
UniProt P11588, sequence (whole entry, looked up): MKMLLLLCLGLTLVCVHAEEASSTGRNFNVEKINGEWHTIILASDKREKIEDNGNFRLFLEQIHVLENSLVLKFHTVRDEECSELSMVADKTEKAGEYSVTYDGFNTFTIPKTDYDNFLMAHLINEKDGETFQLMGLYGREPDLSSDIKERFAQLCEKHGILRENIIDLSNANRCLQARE
UniProt P16257, sequence (whole entry, looked up): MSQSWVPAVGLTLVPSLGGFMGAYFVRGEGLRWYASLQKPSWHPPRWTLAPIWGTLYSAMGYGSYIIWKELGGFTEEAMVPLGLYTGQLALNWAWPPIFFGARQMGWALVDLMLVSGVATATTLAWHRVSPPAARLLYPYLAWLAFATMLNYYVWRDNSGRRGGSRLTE
UniProt Q51366, sequence (whole entry, looked up): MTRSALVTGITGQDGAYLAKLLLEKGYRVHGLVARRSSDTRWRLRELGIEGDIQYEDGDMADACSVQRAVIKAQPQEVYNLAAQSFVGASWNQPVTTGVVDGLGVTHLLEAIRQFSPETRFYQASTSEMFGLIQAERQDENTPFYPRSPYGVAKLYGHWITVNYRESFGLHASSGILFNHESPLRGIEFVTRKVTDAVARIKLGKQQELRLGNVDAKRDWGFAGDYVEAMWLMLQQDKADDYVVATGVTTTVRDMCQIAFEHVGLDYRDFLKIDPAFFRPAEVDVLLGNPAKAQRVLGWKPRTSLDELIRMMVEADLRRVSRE
UniProt P9WG57, sequence (whole entry, looked up): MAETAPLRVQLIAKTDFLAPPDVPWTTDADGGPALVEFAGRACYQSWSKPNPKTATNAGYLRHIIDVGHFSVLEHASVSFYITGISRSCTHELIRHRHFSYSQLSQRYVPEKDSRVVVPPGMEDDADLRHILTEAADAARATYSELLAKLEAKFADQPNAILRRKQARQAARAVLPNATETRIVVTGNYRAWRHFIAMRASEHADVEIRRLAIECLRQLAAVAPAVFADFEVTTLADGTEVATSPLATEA
UniProt Q9UNQ0, sequence (whole entry, looked up): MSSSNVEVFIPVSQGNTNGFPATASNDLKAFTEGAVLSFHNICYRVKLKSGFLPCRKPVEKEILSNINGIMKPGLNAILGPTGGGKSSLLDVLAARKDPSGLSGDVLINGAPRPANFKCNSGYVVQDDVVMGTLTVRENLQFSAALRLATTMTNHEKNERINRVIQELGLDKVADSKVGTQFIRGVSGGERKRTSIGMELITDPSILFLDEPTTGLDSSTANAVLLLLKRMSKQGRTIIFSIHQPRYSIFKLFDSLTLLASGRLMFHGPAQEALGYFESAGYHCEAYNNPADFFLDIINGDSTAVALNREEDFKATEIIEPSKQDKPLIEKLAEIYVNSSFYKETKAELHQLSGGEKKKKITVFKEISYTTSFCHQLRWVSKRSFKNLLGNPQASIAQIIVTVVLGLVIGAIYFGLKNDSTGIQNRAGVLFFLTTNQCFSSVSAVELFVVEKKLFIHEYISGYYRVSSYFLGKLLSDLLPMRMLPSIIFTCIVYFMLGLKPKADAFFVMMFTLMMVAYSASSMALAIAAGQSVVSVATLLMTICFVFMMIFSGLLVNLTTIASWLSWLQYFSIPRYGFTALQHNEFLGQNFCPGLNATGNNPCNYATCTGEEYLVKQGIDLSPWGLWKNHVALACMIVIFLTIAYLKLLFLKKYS

`CC[C@H](C)[C@H](NC(=O)[C@H](CCC(=O)O)NC(=O)[C@@H](NC(=O)[C@H](Cc1ccccc1)NC(=O)[C@H](CO)NC(=O)[C@H](CC(=O)O)NC(=O)[C@H](CCC(=O)O)NC(=O)[C@H](CO)NC(=O)[C@H](CO)NC(=O)CNC(=O)[C@H](CO)NC(=O)[C@H](CO)NC(=O)[C@H](CC(N)=O)NC(=O)CCCCCNC(=S)Nc1ccc2c(c1)C(=O)OC21c2ccc(O)cc2Oc2cc(O)ccc21)C(C)C)C(=O)N[C@@H](CCCNC(=N)N)C(=O)N[C@@H](CCSC)C(=O)N[C@@H](C)C(=O)N[C@@H](CCC(=O)O)C(=O)O` gave a koff of 0.0351 s⁻¹ (Microtubule-associated protein 1 light chain 3 beta (Homo sapiens, UniProt Q9GZQ8); binding, surface plasmon resonance; together with: OPTN 169-185 peptide).
`CIKVAVS` gave a maximum inhibition of 0% (human polyclonal IgM rheumatoid factor; binding to mAb II-481; peptide; combined CDR peptides, serum LOP).
For `Cn1ncc2cc(COc3ccccc3-c3cc(=O)n(C4CCCCC4O)cn3)ccc21` (stereo not drawn), “ΔpEC50 of ACh” read 0.95 ± 1.04 log units (CHRM1; positive allosteric modulator, IP1 accumulation; CHO-M1 cells; 10 µM, 60 min, 37 °C, together with: ACh; reference: ACh alone, higher = stronger potentiation).
The potency ratio of `CC[C@@H]([C@H](C)O)n1ncn(-c2ccc(N3CCN(c4ccc(OC[C@@H]5CO[C@@](Cn6cncn6)(c6ccc(F)cc6F)C5)cc4)CC3)cc2)c1=O` is reported as roughly 2 fold (enzyme activity, inhibitor; rat kidney homogenate; 10 µM, together with: 50 nM corticosterone; reference: rat over human enzyme).
`CNC(=O)c1ccc(COc2ccccc2-c2cc(=O)n(C3CCCCC3O)cn2)cc1` (stereo not drawn): “ΔpEC50 of ACh” 1.22 ± 0.69 log units (CHRM1; positive allosteric modulator, IP1 accumulation; CHO-M1 cells; 1 µM, 60 min, 37 °C, together with: ACh; reference: ACh alone, higher = stronger potentiation).
`CN(C)C(=O)Cc1nn(-c2cccc([18F])n2)c(=O)c2c1c1ccc(Cl)cc1n2C`: “tumour tracer binding” roughly 40% (Translocator protein (Tspo, Rattus norvegicus, UniProt P16257); PET displacement; C6 glioma-bearing rats; iv, 10 mg/kg, approx. 30 min after tracer; reference: peak uptake).
For `CCCCCCCO`, “binding heat capacity change” read -663 ± 56 J/(K·mol) (Major urinary protein 1 (Mup1, Mus musculus, UniProt P11588); isothermal titration calorimetry; concentration not given, pH 7.4, 278-308 K).
`CCCN(CCC)c1ncnc2c1ncn2[C@@H]1O[C@@H]2COP(=O)(O)O[C@H]2[C@H]1O` has a selectivity ratio of 9 and 9.2 (cAMP-dependent protein kinase type II-beta regulatory subunit, holoenzyme with catalytic subunit (Prkar2b, Rattus norvegicus, UniProt P12369, S112A); PKA holoenzyme activation, activator, fluorescence anisotropy; reference: RIIβ over RIα, higher = RIIβ-selective).
Under “concentration for full EtBr displacement”, `C[C@H](N)C(=O)N[C@@H](C)C(=O)N[C@@H](CCCCN)C(=O)N[C@@H](CCCCN)C(=O)N[C@@H](C)C(=O)N[C@@H](C)C(=O)N[C@@H](C)C(=O)N[C@@H](CCCCN)C(=O)N[C@@H](CCCCN)C(=O)N[C@@H](C)C(=O)N[C@@H](C)C(=O)N[C@@H](C)C(=O)N[C@@H](CCCCN)C(=O)N[C@@H](CCCCN)C(=O)N[C@@H](C)C(N)=O` is recorded as 150 µM (calf thymus DNA; DNA binding; ctDNA 100 µM, together with: ethidium bromide 4 µM).
`CCCSc1nc2c([nH]1)c(=O)n(C)c(=O)n2C` has a remaining activity of 89% (Progesterone receptor (PGR, Homo sapiens, UniProt P06401); reporter gene, antagonist, MMTV-luciferase; T47D/A1-2; 10 µM, 24 h, together with: 5 nM progesterone; reference: maximal activity).
`NC(=O)c1ccc(COc2ccccc2-c2cc(=O)n(C3CCCCC3O)cn2)cc1` (stereo not drawn): “ΔpEC50 of ACh” 2.77 ± 0.49 log units (CHRM1; positive allosteric modulator, IP1 accumulation; CHO-M1 cells; 10 µM, 60 min, 37 °C, together with: ACh; reference: ACh alone, higher = stronger potentiation).
With `CC(C)[C@H](NC(=O)[C@@H]1CCCN1C(=O)[C@H](CCCNC(=N)N)NC(=O)[C@H](CS)NC(=O)[C@H](Cc1c[nH]c2ccccc12)NC(=O)[C@H](CCCNC(=N)N)NC(=O)[C@@H](Cc1ccccc1)NC(=O)[C@H](Cc1c[nH]cn1)NC(=O)[C@H](CCC(=O)O)NC(=O)[C@H](CS)NC(=O)[C@H](CS)NC(=O)[C@H](CCCCN)NC(=O)[C@@H]1CC(=O)N[C@@H](CCCNC(=N)N)C(=O)N[C@@H](C)C(=O)N[C@@H](CC(=O)O)C(=O)N[C@H](Cc2ccc(O)cc2)C(=O)N1)C(N)=O` [technetium-99m labelled] the tissue uptake was 0.95 ± 0.38 %ID/g (C57 mice, pancreas; intravenous, 0.037 MBq, 0.5 h).
Under “substrate inhibition constant”, `Nc1nc2c(ncn2[C@@H]2O[C@H](COP(=O)(O)OP(=O)(O)O[C@H]3O[C@H](CO)[C@@H](O)[C@H](O)[C@@H]3O)[C@@H](O)[C@H]2O)c(=O)[nH]1` is recorded as 2.86 ± 1.31 µM (GDP-mannose 4,6-dehydratase (gmd, Pseudomonas aeruginosa, UniProt Q51366); substrate, capillary electrophoresis; 5 min, 37 °C, no MgCl2).
`Cc1ccc(O)c([C@H](CCN(C(C)C)C(C)C)c2ccccc2)c1` has a Hill coefficient of 1.08 (Sodium channel protein type 5 subunit alpha (SCN5A, Homo sapiens, UniProt Q14524); sodium current, inhibitor, IonWorks Quattro).
The inhibition of `COCn1c(-c2ccccc2)cc2ccccc21` is reported as 33.8% (RAW264.7; NO release, inhibitor, Griess; 50 µM, 20 h, LPS-stimulated).
With `O=c1ccn([C@H]2C[C@H](O)[C@@H](COP(=O)(O)O)O2)c(=O)[nH]1` the activation constant was 17 ± 4 µM (Flavin-dependent thymidylate synthase (thyX, Mycobacterium tuberculosis, UniProt P9WG57); oxidase activity, activator; aerobic, no CH2H4folate, together with: 200 µM NADPH).
`COc1ccc(C)c2sc(NC(C)=O)nc12`: activity “inactive” (Muscarinic acetylcholine receptor M4 (CHRM4, Homo sapiens, UniProt P08173); calcium mobilization, positive allosteric modulator; CHO expressing hM4 and Gqi5; concentration not given, together with: acetylcholine EC20).
`O=C(c1ccc(COc2ccccc2-c2cc(=O)n(C3CCCCC3O)cn2)cc1)N1CCCCC1` (stereo not drawn): “change in baseline activity” 11.1 ± 3 (CHRM1; allosteric agonist, IP1 accumulation; CHO-M1 cells; 1 µM, unit not given; reference: maximum ACh response).
`CC(O)C(C)n1ncn(-c2ccc(N3CCN(c4ccc(OCC5COC(Cn6cncn6)(c6ccc(Cl)cc6Cl)O5)cc4)CC3)cc2)c1=O` (stereo not drawn) gave a potency ratio of no less than 10 fold (enzyme activity, inhibitor; rat kidney homogenate; 10 µM, together with: 50 nM corticosterone; reference: rat over human enzyme).
For `COc1ccccc1-c1cc2nc(-c3ccccc3)cc(N3CCN(C(=O)c4ccccc4)CC3)n2n1`, the IC50 was 760 ± 60 nM (Broad substrate specificity ATP-binding cassette transporter ABCG2 (ABCG2, Homo sapiens, UniProt Q9UNQ0); JC-1 dye efflux, inhibitor, flow cytometry; ABCG2-overexpressing cells; together with: JC-1 1 µM).
`Cn1c(-c2ccccc2)cc2ccccc21` gave an inhibition of 33.6% (RAW264.7; NO release, inhibitor, Griess; 50 µM, 20 h, LPS-stimulated).

A few entries again:
`CN(C)C(=O)Cc1nn(-c2cccc([18F])n2)c(=O)c2c1c1ccc(Cl)cc1n2C`: “tumour tracer binding” roughly 40% (Translocator protein (Tspo, Rattus norvegicus, UniProt P16257); PET displacement; C6 glioma-bearing rats; iv, 10 mg/kg, approx. 30 min after tracer; reference: peak uptake).
For `CCCCCCCO`, “binding heat capacity change” read -663 ± 56 J/(K·mol) (Major urinary protein 1 (Mup1, Mus musculus, UniProt P11588); isothermal titration calorimetry; concentration not given, pH 7.4, 278-308 K).
